Experimental data collected from several papers.
A part holds a random share of what one study measured.

Series 1
Target: Histone acetyltransferase KAT6A, winged helix 1, GST fusion (KAT6A, Homo sapiens, UniProt Q92794, residues 1-85)
Technique: protein binding microarray
Molecule type: double-stranded DNA, one strand shown
Sample: in vitro
Tested at: not given
Setting: 8-mer, flanks averaged, mean of 2 arrays, mostly near background
Relative to: not given
Reading: higher = stronger binding
Residues (chain): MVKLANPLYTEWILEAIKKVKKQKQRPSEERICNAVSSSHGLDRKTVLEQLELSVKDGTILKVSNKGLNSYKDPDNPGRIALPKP
The E-score of `AGATTGTA` is reported as -0.211.
`ACGGCCGT` has an E-score of 0.425.
For `ATCGGCGA`, the E-score was 0.253.
The E-score of `TCGGAAAA` is reported as 0.147.
The E-score of `AGCAATTA` is reported as 0.0811.
With `AGCCGATC` the E-score was 0.119.
With `CGCCTCGC` the E-score was 0.189.
The E-score of `AATGAGCG` is reported as 0.0325.

Series 2
Target: POU domain, class 5, transcription factor 1, POU domain (Pou5f1, Mus musculus, UniProt P20263, residues 131-289)
Chain of UniProt P20263 (131-289, looked up): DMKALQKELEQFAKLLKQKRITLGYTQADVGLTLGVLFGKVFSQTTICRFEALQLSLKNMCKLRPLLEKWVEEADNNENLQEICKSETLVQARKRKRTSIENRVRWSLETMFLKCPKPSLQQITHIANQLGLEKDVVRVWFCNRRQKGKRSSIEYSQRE
Technique: Spec-seq
Molecule type: double-stranded DNA, one strand shown
Sample: in vitro
Tested at: not given
Setting: whole probe, mean of replicates
Relative to: not given
Reading: lower = stronger binding
All sequences stand within: GAGTCGTCTCGTCAGCAC … CCGTAGAGCACTCAGGTC
For `ATAGGCAT`, “relative binding energy” read 0.341 ln ratio.
`AGTATAAT`: “relative binding energy” 0.36 ln ratio.
Under “relative binding energy”, `ATGCTCAA` is recorded as 0.332 ln ratio.
For `ATTCCCAT`, “relative binding energy” read 0.108 ln ratio.
`ATGCAAAT`: “relative binding energy” -2.22 ln ratio.
Under “relative binding energy”, `CGTCTAAT` is recorded as 1.1 ln ratio.
`ATGCGCGT`: “relative binding energy” 0.407 ln ratio.
For `ATGCGCTA`, “relative binding energy” read 0.555 ln ratio.
Under “relative binding energy”, `GGGTTAAT` is recorded as 0.75 ln ratio.
For `ATCTGTAT`, “relative binding energy” read 0.473 ln ratio.
`ATGTGGAT`: “relative binding energy” 0.496 ln ratio.

Series 3
Target: RNA binding protein fox-1 homolog 2, RRM domain, GST-SBP tag (RBFOX2, Homo sapiens, UniProt O43251-10, residues 100-194)
Technique: RNA Bind-n-Seq
Molecule type: RNA
Sample: in vitro
Tested at: 365 nM
Setting: natural RNA segment, single round, ends assumed
Relative to: no-protein control
Reading: higher = stronger binding
All sequences stand within: GGGAGUUCUACAGUCCGACGAUC … UGGAAUUCUCGGGUGCCAA
Construct (chain): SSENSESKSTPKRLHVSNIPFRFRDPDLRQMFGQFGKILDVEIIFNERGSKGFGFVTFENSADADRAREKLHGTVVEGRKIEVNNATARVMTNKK
`AUCAUACCACUGCACUCCAGCCUGGGUGACAGAGCGAGACCCUGUCUCAAAAAAAAAAAAGAAUUUGGAGAUGGUUCUGCCCACUCUGGUUUCUCUGAAAAAACGAGGUA`: “RBNS enrichment (R)” 0.282.
Under “RBNS enrichment (R)”, `UAUAGUUAUUUUCUACACAUGCCAACACACAUGAUGAUAAAGGAACCUUUUCUAGGAGGCAUUGCAGGGUUUCAAUACACAGGACAUGUUCUAGUUACAGAAGCCUUGCU` is recorded as 0.235.
`UUUGUUUAAAGCGUGGGGUUUUUUAAUCUCUGCCACCCUUGUCAAGGGAGUCUUGUAAAGUUGCCGAGGGUAGGUUCAUCUCCAGGUUUCGGGAUUCCCAUCCGUCCUGG` — result for “RBNS enrichment (R)”: 0.301.
`GUGGGUCUUAUGUGUGUCUGUGUCUUCUCCUUAAACACUCGCCCUGGAGUCUGUUCUCACACCUGUGCGCAGGUUUGCACACUCAAGUUCUCAUGGGCAGGCUCAGGUCU` — result for “RBNS enrichment (R)”: 0.369.
`UUGUUGACUCUGAAACUUGUCACCUUGUCACCAGCUAGAUGUCAAGACUUGGCUGCCCUCUGAUGUGGGUGCUUCUGCCCCUUCCCUGUUCUAACUGUCCGACAGGCUCC`: “RBNS enrichment (R)” 0.278.
`GAAUGUAAAAACAUUCAGUUGAGACCAUAUGCAUUUUCUGUGCUGUUUGUACUUGAGGUAUGUAACAUUUGUAUACCUGAACUUAUUUUAAAGAUGAACUGAAAUGCACA`: “RBNS enrichment (R)” 0.302.
For `UAUCUCCCUUUCCUUCACUCAAGGGCCAUUUCCCCAGUCCCUAUCUCCCCCAUCCCCUCCCGGCUUAUAGGCCCCACAGGUGCUAUUUGUUGUGCUGGCCCAGGCGUGGG`, “RBNS enrichment (R)” read 1.02.

Mixed results
`PhoQ, residues 284 288 289 292 302 303 SLANKL` gave a fold induction of 5.58 (PhoP, residues 12 14 15 18 19 NQAHL (Escherichia coli, UniProt P23836); Sort-seq, measured: YFP reporter; E. coli; PhoQ-PhoP variant library, together with: 10 µM Mg2+; relative to: high Mg2+ state, higher = stronger signaling).
